# Experimental data from different studies.
# Compare with care: the assays were run in different laboratories. Several values in a cell are separate wells, animals, samples, runs or records. Numbers after ± are the reported error.
# RPS6KA5: Ribosomal protein S6 kinase alpha-5 (RPS6KA5, Homo sapiens, UniProt O75582)
# Chain of UniProt O75582 (whole entry, looked up): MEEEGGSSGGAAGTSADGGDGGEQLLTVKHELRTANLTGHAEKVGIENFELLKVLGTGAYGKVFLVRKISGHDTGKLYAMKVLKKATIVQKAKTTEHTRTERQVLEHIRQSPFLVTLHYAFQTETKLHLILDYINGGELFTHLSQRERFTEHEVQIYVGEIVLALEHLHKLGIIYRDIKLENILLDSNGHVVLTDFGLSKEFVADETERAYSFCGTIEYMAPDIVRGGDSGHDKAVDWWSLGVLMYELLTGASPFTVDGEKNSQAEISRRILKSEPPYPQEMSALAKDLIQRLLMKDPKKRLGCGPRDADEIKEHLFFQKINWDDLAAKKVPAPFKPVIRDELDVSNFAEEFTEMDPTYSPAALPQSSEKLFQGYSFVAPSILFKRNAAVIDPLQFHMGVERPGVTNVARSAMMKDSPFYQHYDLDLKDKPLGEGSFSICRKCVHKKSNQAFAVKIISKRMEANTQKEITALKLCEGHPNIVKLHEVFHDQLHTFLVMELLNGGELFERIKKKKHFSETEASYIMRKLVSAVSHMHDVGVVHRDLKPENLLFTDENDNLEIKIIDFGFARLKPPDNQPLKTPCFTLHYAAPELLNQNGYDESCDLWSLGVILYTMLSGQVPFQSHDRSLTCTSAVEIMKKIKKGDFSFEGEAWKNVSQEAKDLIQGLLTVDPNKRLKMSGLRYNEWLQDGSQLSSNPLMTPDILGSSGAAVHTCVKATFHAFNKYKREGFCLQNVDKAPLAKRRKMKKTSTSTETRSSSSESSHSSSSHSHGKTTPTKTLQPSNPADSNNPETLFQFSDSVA
SMILES,target or system,assay,test system,setting,scale,measurement,value
CC[C@H](C)[C@H](NC(=O)[C@H](CCCCN)NC(=O)CNC(=O)[C@H](CC(C)C)NC(=O)[C@H](Cc1ccccc1)NC(=O)[C@H](CCCCN)NC(=O)[C@H](CO)NC(=O)[C@H](Cc1ccccc1)NC(=O)[C@H](Cc1c[nH]c2ccccc12)NC(=O)[C@H](CCC(N)=O)NC(=O)[C@@H](NC(=O)[C@H](Cc1ccccc1)NC(=O)CCCCCNC(=O)CN1CCN(CC(=O)O)CCN(CC(=O)O)CCN(CC(=O)O)CC1)C(C)C)C(=O)N[C@@H](CCC(=O)O)C(=O)N1CCC[C@H]1C(=O)N[C@@H](CC(=O)O)C(=O)N[C@H](C(=O)N[C@@H](CO)C(=O)N[C@@H](CCC(N)=O)C(=O)N[C@H](C(=O)N[C@@H](CCC(N)=O)C(=O)N[C@@H](CC(=O)O)C(=O)N1CCC[C@H]1C(=O)N[C@@H](CC(N)=O)C(=O)N[C@@H](CC(=O)O)C(=O)N[C@@H](CCC(N)=O)C(=O)N[C@@H](Cc1ccc(O)cc1)C(=O)N[C@@H](CCC(=O)O)C(=O)N1CCC[C@H]1C(=O)N[C@@H](Cc1ccccc1)C(=O)O)C(C)C)C(C)C [copper-64 labelled],,dynamic PET,"mouse, CT26 tumour, untreated, tumour","intravenous, 100 µCi/mouse, 1260 s",,SUVmean,1.04 SUV
C[C@H](O)[C@@H](NC(=O)[C@H]1CCCN1C(=O)[C@@H](CCCCN)NC(=O)[C@@H](CO)NC(=O)[C@@H](Cc1ccc(O)cc1)NC(=O)[C@@H](CC(N)=O)NC(=O)CCOCCOCCOCCNC(=O)CN1CCN(CC(=O)O)CCN(CC(=O)O)CCN(CC(=O)O)CC1)C(=O)N[C@H](CC(=O)O)C(=O)N[C@H](CCCNC(=N)N)C(=O)N[C@H](CCC(N)=O)C(=O)N[C@H](Cc1ccc(O)cc1)C(=O)N[C@H](Cc1c[nH]cn1)C(=O)N[C@H](Cc1ccccc1)C(N)=O [gallium-68 labelled],,ex vivo gamma counting,"BALB/c nude mouse, U-87 MG xenograft, blood","intravenous, 1.85 MBq, 30 min",,tissue uptake,1.55 ± 1.07 %ID/g
CC(C)[C@H]1NC(=O)C[C@H]2/C=C/CCSSC[C@@H](NC1=O)C(=O)N[C@H](Cc1cccc3ccccc13)C(=O)NCC(=O)O2,RPS6KA5,"enzyme activity, inhibitor",,10 µM,,inhibition,0.6%
CC(C)(C)C(=O)OCOP(=O)(OCOC(=O)C(C)(C)C)C1CCCN(O)C1=O (stereo not drawn),SF-539,,,,,GI50,1520 nM
CC[C@H](C)[C@H](NC(=O)[C@H](CO)NC(=O)[C@H](Cc1ccc(O)cc1)NC(=O)[C@H](Cc1ccc(O)cc1)NC(=O)[C@H](CC(N)=O)NC(=O)CNC(=O)[C@H](CO)NC(=O)[C@H](Cc1ccc(O)cc1)NC(=O)[C@H](CO)NC(=O)[C@H](CO)NC(=O)[C@H](CC(N)=O)NC(=O)COCCOCCNC(=O)CN1CCN(CC(=O)O)CCN(CC(=O)O)CCN(CC(=O)O)CC1)C(=O)N[C@@H](CC(C)C)C(N)=O [copper-64 labelled],,dynamic PET,"tamoxifen-induced PDAC mouse model, metastases","1.9 min, CLDN4-expressing tumours",,maximum metastasis uptake,31 %IA/cc
CSCC[C@H](NC(=O)CNC(=O)[C@H](CCCCN)NC(=O)[C@H](CC(C)C)NC(=O)[C@@H]1CCCN1C(=O)[C@H](CO)NC(=O)[C@H](Cc1c[nH]cn1)NC(=O)[C@H](Cc1c[nH]c2ccccc12)NC(=O)[C@H](CCCNC(=N)N)NC(=O)[C@H](CC(C)C)NC(=O)[C@H](CCCNC(=N)N)NC(=O)[C@H](Cc1c[nH]c2ccccc12)NC(=O)[C@H](CS)NC(=O)CCCCCNC(=O)CN1CCN(CC(=O)O)CCN(CC(=O)O)CCN(CC(=O)O)CC1)C(=O)O [copper-64 labelled],,ex vivo biodistribution,"BALB/c nude mice, muscle","intravenous, dose not given, 2 h, Huh-7 tumour-bearing",,tissue uptake,0.5 %ID/g
C=Cc1c(C)c2cc3nc(c(CC(=O)[O-])c4[n-]c(cc5nc(cc1[n-]2)C(C)=C5CC)c(C)c4C(=O)[O-])C(CCC(=O)[O-])C3C.[Cu+2].[Na+].[Na+].[Na+] (stereo not drawn),,,BALB/c mouse,"oral, acute toxicity",,minimum lethal dose,> 5000 mg/kg
CSCC[C@H](NC(=O)[C@H](CCCNC(=N)N)NC(=O)[C@H](CCCNC(=N)N)NC(=O)[C@H](CCCCN)NC(=O)[C@H](C)NC(=O)[C@H](CCCNC(=N)N)NC(=O)CNC(=O)[C@@H](N)[C@@H](C)O)C(=O)N[C@@H](CCC(N)=O)C(=O)N[C@@H](Cc1ccc(O)cc1)C(=O)N[C@@H](CC(N)=O)C(=O)N[C@@H](CCCNC(=N)N)C(=O)N[C@@H](CCCNC(=N)N)C(N)=O,,"chemical stability, HPLC","human, serum","100 µM, 30 min, pH 7.4",,compound remaining,87.5%
O=C1NC2(CC2)COc2ncc(F)cc2[C@H]2COCCN2c2ccn3ncc1c3n2,,,"Sprague-Dawley rat, female, serum","oral, 10 mg/kg/day, 4 weeks daily, end of recovery period",,potassium,3.93 ± 0.14 mmol/L
CC(C)[C@@H]1NC(=O)CNC(=O)[C@H](CC(N)=O)NC(=O)[C@H](CCCNC(=N)N)NC(=O)[C@H](Cc2ccc(O)cc2)NC(=O)[C@H](C(C)C)NC(=O)[C@@H](NC(=O)[C@@H](NC(=O)[C@H](CC(N)=O)NC(=O)[C@H](Cc2c[nH]c3ccccc23)NC(=O)[C@H](C)NC(=O)[C@H](Cc2ccccc2)NC(=O)CNC(=O)[C@H](CCCCN)NC(=O)[C@H](Cc2ccccc2)NC(=O)[C@H](Cc2ccccc2)NC(=O)[C@H](CCCCN)NC(=O)OCC2c3ccccc3-c3ccccc32)C(C)C)CSSC[C@@H](C(=O)N[C@@H](Cc2c[nH]cn2)C(=O)N[C@@H](CCCNC(=N)N)C(=O)N[C@@H](CCCNC(=N)N)C(=O)N[C@@H](C)C(=O)N[C@@H](CC(N)=O)C(N)=O)NC(=O)[C@H](C(C)C)NC(=O)[C@H](CCCNC(=N)N)NC1=O,,,"ICR mouse, blood","intramammary, 10 mg/kg, day 5, 3 d dosing",,haematocrit,40.1 ± 1.25%
CCc1nnc(-c2c(OC)cc(-c3cnc4cc(-c5cnn(C)c5)ccn34)cc2OC)o1,,metabolic stability,"rat, liver microsomes",,,microsomal CLint,< 9.6 µL/min/mg
CC(C)C[C@@H](NC(=O)[C@@H](CCCNC(=N)N)NC(=O)[C@@H](Cc1c[nH]cn1)NC(=O)[C@@H](Cc1c[nH]c2ccccc12)NC(=O)[C@@H](Cc1c[nH]cn1)NC(=O)[C@@H](Cc1ccccc1)NC(=O)[C@H](NC(=O)[C@@H](Cc1ccc(O)cc1)NC(=O)CNC(=O)CNC(=O)CCOCCOCCOCCNC(=O)CN1CCN(CC(=O)O)CCN(CC(=O)O)CC1)[C@H](C)O)C(=O)N[C@H](CC(N)=O)C(=O)N1CCC[C@@H]1C(=O)O [gallium-68 labelled],,OLINDA/EXM,"adult male human, stomach wall",extrapolated from C57BL/6 mice,,organ absorbed dose,0.00988 ± 0.000151 mSv/MBq
CS(C)(=O)=Nc1ccc(-c2ccc(-c3nc4cc(O[C@@H]5CO[C@H]6[C@@H]5OC[C@H]6O)[nH]c4cc3F)cc2)cc1,RPS6KA5,"enzyme activity, inhibitor",,10 µM,,inhibition,-15%
CCc1nn(C)c2nc(-c3ccc(C(=O)O)cc3)nc(NCc3ccccc3)c12,,,NSG mice,"dose not given, day 5",,body weight,23.1 g and 20.9 g and 20.8 g and 22.3 g
CC(C)(CCCC/C=C/CCCCCC(C)(C)C(=O)O)C(=O)O,,,"beagle dog, both sexes","oral, dose not given, 48 h",,plasma concentration,4080 ng/mL
CSCC[C@H](N)C(=O)N[C@@H](C)C(=O)N[C@@H](Cc1c[nH]c2ccccc12)C(=O)N[C@@H](Cc1c[nH]cn1)C(=O)N[C@@H](CC(=O)O)C(=O)N[C@@H](CC(=O)O)C(=O)N[C@@H](CCC(=O)O)C(=O)N[C@@H](CCC(=O)O)C(=O)N[C@@H](Cc1ccccc1)C(=O)N[C@@H](C)C(=O)N[C@@H](CCCNC(=N)N)C(=O)N[C@@H](CCCNC(=N)N)C(=O)N[C@@H](CCCNC(=N)N)C(=O)N[C@@H](CCCNC(=N)N)C(=O)NCCCCCC(=O)NCCCCC(NC(=O)CCCCCNC(=O)[C@H](CCCNC(=N)N)NC(=O)[C@H](CCCNC(=N)N)NC(=O)[C@H](CCCNC(=N)N)NC(=O)[C@H](CCCNC(=N)N)NC(=O)[C@H](C)NC(=O)[C@H](Cc1ccccc1)NC(=O)[C@H](CCC(=O)O)NC(=O)[C@H](CCC(=O)O)NC(=O)[C@H](CC(=O)O)NC(=O)[C@H](CC(=O)O)NC(=O)[C@H](Cc1c[nH]cn1)NC(=O)[C@H](Cc1c[nH]c2ccccc12)NC(=O)[C@H](C)NC(=O)[C@@H](N)CCSC)C(=O)NCCCCC(NC(=O)C(CCCCNC(=O)CCCCCNC(=O)[C@H](CCCNC(=N)N)NC(=O)[C@H](CCCNC(=N)N)NC(=O)[C@H](CCCNC(=N)N)NC(=O)[C@H](CCCNC(=N)N)NC(=O)[C@H](C)NC(=O)[C@H](Cc1ccccc1)NC(=O)[C@H](CCC(=O)O)NC(=O)[C@H](CCC(=O)O)NC(=O)[C@H](CC(=O)O)NC(=O)[C@H](CC(=O)O)NC(=O)[C@H](Cc1c[nH]cn1)NC(=O)[C@H](Cc1c[nH]c2ccccc12)NC(=O)[C@H](C)NC(=O)[C@@H](N)CCSC)NC(=O)CCCCCNC(=O)[C@H](CCCNC(=N)N)NC(=O)[C@H](CCCNC(=N)N)NC(=O)[C@H](CCCNC(=N)N)NC(=O)[C@H](CCCNC(=N)N)NC(=O)[C@H](C)NC(=O)[C@H](Cc1ccccc1)NC(=O)[C@H](CCC(=O)O)NC(=O)[C@H](CCC(=O)O)NC(=O)[C@H](CC(=O)O)NC(=O)[C@H](CC(=O)O)NC(=O)[C@H](Cc1c[nH]cn1)NC(=O)[C@H](Cc1c[nH]c2ccccc12)NC(=O)[C@H](C)NC(=O)[C@@H](N)CCSC)C(N)=O (stereo partly drawn),,,"C57BL/6 mouse female, stomach","dose not given, 6 h",reference: total,tissue distribution,26% and 20.6% and 31.4%
CN1Cc2cc(Cl)ccc2-n2c(nnc2C2CCN(c3cccc(F)n3)CC2)C1,,,"Sprague-Dawley rats male, brainstem","intravenous, 0.03 mg/kg, 60 min",,concentration,1.19 ± 0.24 ng/mL
COc1ccccc1-c1n[nH]c2nc(NC3CCN(C(=O)Cc4ccc(F)cc4F)CC3)ncc12,,"bead binding, competition bead pull-down, refers to: LMJF.32.3310",Leishmania donovani axenic amastigote extract,10 µM,reference: vehicle,relative abundance,0.85
C#Cc1c(F)ccc2cc(O)cc(-c3ncc4c(N5CC6CCC(C5)N6C(=O)OC(C)OC(=O)CCCCCCC)nc(OC[C@@]56CCCN5C[C@H](F)C6)nc4c3F)c12 (stereo partly drawn),,refers to: prodrug,mouse whole blood,1 µM,,t1/2,4.85 min
COc1ccccc1-c1n[nH]c2nc(N[C@H]3CC[C@H](NS(=O)(=O)CC(C)C)CC3)ncc12,,"bead binding, competition bead pull-down, refers to: LINJ.35.5450",Leishmania donovani extract,10 µM,reference: vehicle,relative abundance,0.91
CC(C)C[C@@H]1NC(=O)[C@@H](Cc2c[nH]c3ccccc23)NC(=O)[C@H](CCCNC(=N)N)NC(=O)[C@@H](CCC(=O)O)NC(=O)[C@H](CCC(N)=O)NC(=O)[C@@H](CCC(=O)O)NC(=O)[C@H](CCCNC(=N)N)NC(=O)[C@@H](Cc2c[nH]c3ccccc23)NC1=O,,"Luminex, refers to: MIG","LDLr-/- mice, Western diet, liver","dose not given, 4 weeks",,cytokine level,1200 ± 650 pg/g tissue

# Some of these lines once more:
SMILES,target or system,assay,test system,setting,scale,measurement,value
CC(C)(C)C(=O)OCOP(=O)(OCOC(=O)C(C)(C)C)C1CCCN(O)C1=O (stereo not drawn),SF-539,,,,,GI50,1520 nM
